Measured values collected from several papers.
Each line is one published result; not all experiments were run side by side. Values joined by “and” are separate records of one study, mostly repeats; a detail may differ. ± marks the error that the study gave.
UniProt P28335, sequence (whole entry, looked up): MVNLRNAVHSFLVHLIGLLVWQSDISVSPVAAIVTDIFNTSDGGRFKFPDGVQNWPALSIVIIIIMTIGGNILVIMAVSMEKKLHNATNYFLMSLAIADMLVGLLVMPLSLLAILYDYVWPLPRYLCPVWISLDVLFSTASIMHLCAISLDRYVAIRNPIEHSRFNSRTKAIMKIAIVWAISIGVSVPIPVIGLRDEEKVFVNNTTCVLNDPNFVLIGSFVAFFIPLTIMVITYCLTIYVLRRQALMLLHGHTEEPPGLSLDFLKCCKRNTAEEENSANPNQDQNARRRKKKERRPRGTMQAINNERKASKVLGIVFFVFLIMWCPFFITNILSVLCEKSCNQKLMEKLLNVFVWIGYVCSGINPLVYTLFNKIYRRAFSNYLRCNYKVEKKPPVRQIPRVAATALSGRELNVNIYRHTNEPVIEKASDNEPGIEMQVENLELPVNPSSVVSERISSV
UniProt P42679, sequence (whole entry, looked up): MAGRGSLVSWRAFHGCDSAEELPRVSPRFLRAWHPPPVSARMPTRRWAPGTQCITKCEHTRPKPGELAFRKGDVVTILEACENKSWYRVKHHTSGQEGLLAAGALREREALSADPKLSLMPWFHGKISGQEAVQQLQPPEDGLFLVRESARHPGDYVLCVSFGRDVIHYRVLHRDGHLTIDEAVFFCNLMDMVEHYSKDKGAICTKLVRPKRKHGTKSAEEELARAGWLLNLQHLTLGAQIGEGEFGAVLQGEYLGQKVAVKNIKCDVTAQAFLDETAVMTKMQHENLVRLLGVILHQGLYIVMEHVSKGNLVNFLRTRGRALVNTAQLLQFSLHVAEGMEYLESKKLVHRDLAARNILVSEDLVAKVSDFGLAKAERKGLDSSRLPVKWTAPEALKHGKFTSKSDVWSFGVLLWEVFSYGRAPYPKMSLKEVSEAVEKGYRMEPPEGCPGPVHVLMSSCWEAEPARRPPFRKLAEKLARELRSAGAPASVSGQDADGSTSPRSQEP

SMILES | target or system | test | test system | conditions | how to read | quantity | result
CN(C)[C@H]1C[C@@]23CC[C@@]4(O2)C(=CC[C@]2(C)[C@@H](c5ccc6ccncc6c5)CC[C@H]24)C=C3[C@@H](O)[C@@H]1O | Megakaryocyte-associated tyrosine-protein kinase (MATK, Homo sapiens, UniProt P42679) | ATP probe labelling, inhibitor, KiNativ profiling |  | 0.1 µM |  | inhibition | 2.5%
CCN(CC)CCO.O=C(O)C(Cl)Cl | Solanum nigrum | herbicidal activity |  | 15 mg/mL, 21 days, post-emergence greenhouse |  | inhibition | 38%
CC(C)(C)C(=O)OCOP(=O)(OCOC(=O)C(C)(C)C)C1CCCN(O)C1=O (stereo not drawn) | SK-OV-3 |  |  |  |  | CC50 | > 100 µM
COc1ccccc1-c1n[nH]c2nc(NC3CCN(C(=O)Cc4ccc(F)cc4F)CC3)ncc12 |  | bead binding, competition bead pull-down, item: LINJ.23.0310 | Leishmania donovani axenic amastigote extract | 10 µM | reference: vehicle | relative abundance | 0.96
O=S(=O)(c1ccc(-c2ccc3ncnc(Nc4ccc(OCc5cccc(F)c5)cc4)c3c2)cc1)N1CCOCC1 | Trypanosoma cruzi | intracellular amastigote growth, β-galactosidase CPRG | 3T3, Tulahuen, β-galactosidase-expressing | 10 µM, 96 h |  | inhibition | 10%
O=C(NNc1ccc(Cl)cc1)c1nnc(CC23CC4CC(CC(C4)C2)C3)o1 | Rhizoctonia solani | microbial growth |  | 50 µg/mL |  | inhibition | 68.7%
O=C1NC2(CC2)COc2ncc(F)cc2[C@H]2COCCN2c2ccn3ncc1c3n2 |  |  | Sprague-Dawley rat, female, heart | oral, 5 mg/kg/day, 4 weeks, end of treatment |  | organ-to-brain weight ratio | 66.6 ± 6.18%
CCOC(=O)C1(Cc2ccc(F)cc2)Oc2cc(F)ccc2N(Cc2ccc(F)cc2)C1=O (stereo not drawn) | Setaria viridis | fresh weight, greenhouse postemergence |  | postemergence, 150 g ai/ha, 21 days |  | inhibition | 56.02 ± 0.54%
CCc1nn(C)c2nc(-c3ccc(C(=O)O)cc3)nc(NCc3ccccc3)c12 | Cryptosporidium parvum | parasite growth, immunofluorescence imaging | HCT-8, Iowa | 8.22 nM |  | inhibition | -23.9% and -6.18%
CS(C)(=O)=Nc1ccc(-c2ccc(-c3nc4cc(O[C@@H]5CO[C@H]6[C@@H]5OC[C@H]6O)[nH]c4cc3F)cc2)cc1 | 5-hydroxytryptamine receptor 2C (HTR2C, Homo sapiens, UniProt P28335) | calcium signal, antagonist |  | 10 µM |  | inhibition | 5%
CCOC(=O)C1(Cc2ccccc2)Oc2ccccc2N(Cc2ccccc2)C1=O (stereo not drawn) | Setaria viridis | fresh weight, greenhouse postemergence |  | postemergence, 150 g ai/ha, 21 days |  | inhibition | 53 ± 1.82%
COc1ccccc1-c1n[nH]c2nc(N[C@H]3CC[C@H](NS(=O)(=O)CC(C)C)CC3)ncc12 |  | bead binding, competition bead pull-down, item: LINJ.23.1460 | Leishmania donovani extract | 10 µM | reference: vehicle | relative abundance | 0.93
c1ccc(COc2ccc(Nc3ncnc4ccc(-c5cccc(N6CCOCC6)c5)cc34)cc2)cc1 | Trypanosoma cruzi | intracellular amastigote growth, β-galactosidase CPRG | 3T3, Tulahuen, β-galactosidase-expressing | 10 µM, 96 h |  | inhibition | 37%
CCOC(=O)C1(Cc2ccccc2F)Oc2cc(F)ccc2N(Cc2ccccc2F)C1=O (stereo not drawn) | Setaria viridis | fresh weight, greenhouse postemergence |  | postemergence, 150 g ai/ha, 21 days |  | inhibition | 44.9 ± 2.02%
COc1cccc(COc2ccc(Nc3ncnc4ccc(-c5ccc(S(=O)(=O)N6CCOCC6)cc5)cc34)cc2Cl)c1 | Trypanosoma cruzi | intracellular amastigote growth, β-galactosidase CPRG | 3T3, Tulahuen, β-galactosidase-expressing | 10 µM, 96 h |  | inhibition | 5%
CC(O)CN(CC(C)O)CC(C)O.O=C(O)C(Cl)Cl (stereo not drawn) | Solanum nigrum | herbicidal activity |  | 15 mg/mL, 21 days, post-emergence greenhouse |  | inhibition | -39%
CCOC(=O)C1(Cc2cccc(C(C)C)c2)Oc2cc(F)ccc2N(Cc2cccc(C(C)C)c2)C1=O (stereo not drawn) | Setaria viridis | fresh weight, greenhouse postemergence |  | postemergence, 150 g ai/ha, 21 days |  | inhibition | 46.7 ± 1.2%
Fc1cccc(COc2ccc(Nc3ncnc4ccc(-c5cccc(-n6cccn6)c5)cc34)cc2Cl)c1 | Trypanosoma cruzi | intracellular amastigote growth | NIH 3T3, Tulahuen, β-galactosidase-expressing | 10 µM, 96 h |  | inhibition | 10%

Some of these lines once more:
SMILES | target or system | test | test system | conditions | how to read | quantity | result
O=C(NNc1ccc(Cl)cc1)c1nnc(CC23CC4CC(CC(C4)C2)C3)o1 | Rhizoctonia solani | microbial growth |  | 50 µg/mL |  | inhibition | 68.7%
O=C1NC2(CC2)COc2ncc(F)cc2[C@H]2COCCN2c2ccn3ncc1c3n2 |  |  | Sprague-Dawley rat, female, heart | oral, 5 mg/kg/day, 4 weeks, end of treatment |  | organ-to-brain weight ratio | 66.6 ± 6.18%
